Results pooled from the literature.
Lines come from different studies, so protocols differ. ± gives the spread as reported.

Structure (SMILES)	assay	test system	setting	how to read	endpoint	value
O=C(O)CCn1c(=O)oc2cc(Cl)c(Cl)cc21		Kmo knockout mouse, plasma	30 mg/kg		plasma kynurenine change	no effect
CCS(=O)(=O)Nc1cc(-c2cn(C)c3c(=O)[nH]ccc23)cc2c1ccn2C(C)(c1ccccn1)c1ccccn1		KPPC mice, aggressive PDAC	intraperitoneal, 5 mg/kg, 552 h, daily, late intervention		median survival	50 days
COC[C@@H](NC(C)=O)C(=O)NCc1ccc(OCc2ccccc2F)cc1	formalin test, phase I	mouse	ip, 7.0 mg/kg	baseline: vehicle	licking time	69%
CCCCCCCCCCCCCCCC(=O)N[C@@H](CCC(=O)NCCOCCOCCC(=O)NCCOCCOCCC(=O)NCCCC[C@H](NC(=O)[C@H](CC(=O)O)NC(=O)[C@H](CC(C)C)NC(=O)[C@H](Cc1ccc(O)cc1)NC(=O)[C@H](CCCCN)NC(=O)[C@H](CO)NC(=O)[C@H](Cc1ccc(O)cc1)NC(=O)[C@H](CC(=O)O)NC(=O)[C@H](CO)NC(=O)[C@@H](NC(=O)[C@H](Cc1ccccc1)NC(=O)[C@@H](NC(=O)CNC(=O)[C@H](CCC(N)=O)NC(=O)[C@@H](CO)NC(=O)[C@@H](N)Cc1c[nH]cn1)[C@@H](C)O)[C@@H](C)O)C(=O)N[C@@H](CCCNC(=N)N)C(=O)N[C@@H](CCCNC(=N)N)C(=O)N[C@@H](C)C(=O)N[C@@H](CCC(N)=O)C(=O)N[C@@H](CC(=O)O)C(=O)N[C@@H](Cc1ccccc1)C(=O)N[C@H](C(=O)N[C@@H](CCC(N)=O)C(=O)N[C@@H](Cc1c[nH]c2ccccc12)C(=O)N[C@@H](CC(C)C)C(=O)N[C@@H](CC(C)C)C(=O)N[C@@H](CC(N)=O)C(=O)N[C@H](C(=O)NCC(=O)NCC(=O)N1CCC[C@H]1C(=O)N[C@@H](CO)C(=O)N[C@@H](CO)C(=O)NCC(=O)N[C@@H](C)C(=O)N1CCC[C@H]1C(=O)N1CCC[C@H]1C(=O)N1CCC[C@H]1C(=O)N[C@@H](CO)C(N)=O)[C@@H](C)O)C(C)C)C(=O)O		C57BL/6J mouse CCl4 model	dose not given		serum ALT and AST	decreased
CCN(Cc1ccccc1)C(=O)CCc1nc(CN2CCN(C(=O)Cc3ccc(OC)c(OC)c3)CC2)no1	current clamp	L4-L6 DRG neurons, rat CCI model	10 µM		resting membrane potential	-68 ± 2.63 mV
CC[C@H](C)[C@H](NC(=O)[C@H](C)NC(=O)CNC(=O)[C@@H](N)CCSC)C(=O)N[C@@H](C)C(=O)N[C@@H](CCCCN)C(=O)N[C@@H](CCCNC(=N)N)C(=O)N[C@H](C(=O)N[C@@H](C)C(=O)N[C@@H](CCCCN)C(=O)N[C@@H](Cc1ccccc1)C(=O)NCC(=O)N[C@@H](Cc1c[nH]c2ccccc12)C(=O)N1CCC[C@H]1C(=O)N[C@@H](Cc1ccccc1)C(=O)N[C@H](C(=O)N[C@@H](CCCCN)C(=O)N[C@@H](CCCCN)C(=O)N[C@@H](Cc1ccccc1)C(=O)N[C@@H](Cc1ccc(O)cc1)C(=O)N[C@@H](CCCCN)C(=O)N[C@@H](CCC(N)=O)C(=O)N[C@H](C(=O)N[C@@H](CCSC)C(=O)N[C@@H](CCC(N)=O)C(=O)N[C@@H](Cc1ccccc1)C(=O)N[C@H](C(=O)NCC(=O)N[C@@H](CCC(N)=O)C(=O)NCC(=O)N[C@@H](Cc1c[nH]c2ccccc12)C(=O)N[C@H](C(=O)N[C@H](C(=O)N[C@@H](CC(=O)O)C(=O)N[C@@H](CCC(N)=O)C(=O)N[C@H](C(=O)N[C@@H](CCC(=O)O)C(=O)N[C@@H](CCCCN)C(=O)N[C@@H](Cc1c[nH]c2ccccc12)C(=O)N[C@@H](CC(C)C)C(=O)N[C@@H](CCCCN)C(=O)N[C@@H](CCCNC(=N)N)C(=O)N[C@@H](Cc1c[nH]cn1)C(=O)O)[C@@H](C)CC)[C@@H](C)CC)[C@@H](C)O)[C@@H](C)CC)[C@@H](C)CC)[C@@H](C)CC)C(C)C		PG/PE 1:1 liposomes	MIC	baseline: Triton X-100	calcein release	27.7 ± 1.2%
CS(C)(=O)=Nc1ccc(-c2ccc(-c3nc4cc(O[C@@H]5CO[C@H]6[C@@H]5OC[C@H]6O)[nH]c4cc3F)cc2)cc1		ob/ob mouse, AMLN diet NASH model	oral, 5 mg/kg daily, 8 weeks	baseline: vehicle	plasma cholesterol	no effect
CC[C@H](C)[C@H](NC(=O)[C@H](CCCNC(=N)N)NC(=O)[C@H](CCC(N)=O)NC(=O)[C@H](CC(=O)O)NC(=O)[C@H](CC(C)C)NC(=O)[C@H](CC(C)C)NC(=O)[C@H](CC(N)=O)NC(=O)[C@H](Cc1ccccc1)NC(=O)[C@H](CC(=O)O)NC(=O)[C@@H](NC(=O)[C@@H](NC(=O)[C@H](CC(N)=O)NC(=O)CNC(=O)[C@H](CO)NC(C)=O)C(C)C)[C@@H](C)CC)C(=O)N[C@H](C(=O)N[C@@H](Cc1c[nH]c2ccccc12)C(=O)N[C@@H](CCC(N)=O)C(=O)N[C@@H](CC(N)=O)C(=O)N[C@@H](Cc1c[nH]c2ccccc12)C(=O)N[C@@H](Cc1ccc(O)cc1)C(=O)N[C@@H](C)C(N)=O)[C@@H](C)CC	refers to: HA-02 tetramer	antigen-experienced tetramer+ CD4 T cells, healthy adults, HLA-DRB1*0101	dose not given		α4β7− CCR9+ cells	0%
Cc1ccc(/C=C/C(=O)O)cc1-c1cc2c(cc1C)C(C)(C)CCC2(C)C	RNA sequencing, refers to: Epha3 mRNA	rat, brain	dose not given, 24 h, single dose	baseline: vehicle	log2 fold change	-0.27
Cc1cc(O)cc(C)c1CC(N)C(=O)NC1CCNc2c(C(=O)O)cc(Cc3ccccc3)cc21 (centres unmarked)	warm water tail withdrawal	male C57BL/6 mice	intraperitoneal, 10 mg/kg		antinociception	inactive
Cc1cnc(Nc2ccc(C3CCN(C)CC3)c(F)c2)nc1Nc1ccc(Cl)c(NS(=O)(=O)C(C)(C)C)c1		U-266 multiple myeloma, non-targeting control, mice, U-266 xenograft	subcutaneous, 10 mg/kg/day, Mon-Fri from day 20		median survival	41 days
CC(C)C[C@@H]1NC(=O)[C@@H](Cc2c[nH]c3ccccc23)NC(=O)[C@H](CCCNC(=N)N)NC(=O)[C@@H](CCC(=O)O)NC(=O)[C@H](CCC(N)=O)NC(=O)[C@@H](CCC(=O)O)NC(=O)[C@H](CCCNC(=N)N)NC(=O)[C@@H](Cc2c[nH]c3ccccc23)NC1=O	ELISA	human plasma	concentration not given		pre-beta HDL concentration	81 ± 11 µg/mL
Cc1cc(O)cc(C)c1CC(N)C(=O)NC1CCNc2c(Br)cc(Cc3ccccc3)cc21 (centres unmarked)	warm water tail withdrawal	male C57BL/6 mice	intraperitoneal, 10 mg/kg		antinociception	inactive
CC[C@H](C)[C@H](NC(=O)[C@@H](NC(=O)[C@H](CC(=O)O)NC(C)=O)[C@@H](C)O)C(=O)N[C@@H](CCCNC(=N)N)C(=O)N[C@@H](CC(C)C)C(=O)N[C@@H](CC(C)C)C(=O)N[C@@H](Cc1ccccc1)C(=O)N[C@@H](CCC(N)=O)C(=O)N[C@@H](CC(C)C)C(=O)N[C@@H](CCSC)C(=O)N[C@@H](CCCNC(=N)N)C(=O)N1CCC[C@H]1C(=O)N1CCC[C@H]1C(=O)N[C@@H](CC(N)=O)C(=O)N[C@@H](CCSC)C(=O)N[C@H](C(=O)N1CCC[C@H]1C(=O)N[C@@H](C)C(=O)N[C@H](C(=O)N[C@@H](CC(N)=O)C(=O)N[C@@H](C)C(N)=O)C(C)C)[C@@H](C)O	refers to: HA-29 tetramer	antigen-experienced tetramer+ CD4 T cells, healthy adults, HLA-DRB1*0101	dose not given		α4β7− CCR9+ cells	0%

Excerpt of the above:
Structure (SMILES)	assay	test system	setting	how to read	endpoint	value
CC[C@H](C)[C@H](NC(=O)[C@@H](NC(=O)[C@H](CC(=O)O)NC(C)=O)[C@@H](C)O)C(=O)N[C@@H](CCCNC(=N)N)C(=O)N[C@@H](CC(C)C)C(=O)N[C@@H](CC(C)C)C(=O)N[C@@H](Cc1ccccc1)C(=O)N[C@@H](CCC(N)=O)C(=O)N[C@@H](CC(C)C)C(=O)N[C@@H](CCSC)C(=O)N[C@@H](CCCNC(=N)N)C(=O)N1CCC[C@H]1C(=O)N1CCC[C@H]1C(=O)N[C@@H](CC(N)=O)C(=O)N[C@@H](CCSC)C(=O)N[C@H](C(=O)N1CCC[C@H]1C(=O)N[C@@H](C)C(=O)N[C@H](C(=O)N[C@@H](CC(N)=O)C(=O)N[C@@H](C)C(N)=O)C(C)C)[C@@H](C)O	refers to: HA-29 tetramer	antigen-experienced tetramer+ CD4 T cells, healthy adults, HLA-DRB1*0101	dose not given		α4β7− CCR9+ cells	0%
